Published values gathered from unrelated publications.
Lines come from different studies, so protocols differ.
Target: Interferon-induced, double-stranded RNA-activated protein kinase (EIF2AK2, Homo sapiens, UniProt P19525)
Chain of UniProt P19525 (whole entry, looked up): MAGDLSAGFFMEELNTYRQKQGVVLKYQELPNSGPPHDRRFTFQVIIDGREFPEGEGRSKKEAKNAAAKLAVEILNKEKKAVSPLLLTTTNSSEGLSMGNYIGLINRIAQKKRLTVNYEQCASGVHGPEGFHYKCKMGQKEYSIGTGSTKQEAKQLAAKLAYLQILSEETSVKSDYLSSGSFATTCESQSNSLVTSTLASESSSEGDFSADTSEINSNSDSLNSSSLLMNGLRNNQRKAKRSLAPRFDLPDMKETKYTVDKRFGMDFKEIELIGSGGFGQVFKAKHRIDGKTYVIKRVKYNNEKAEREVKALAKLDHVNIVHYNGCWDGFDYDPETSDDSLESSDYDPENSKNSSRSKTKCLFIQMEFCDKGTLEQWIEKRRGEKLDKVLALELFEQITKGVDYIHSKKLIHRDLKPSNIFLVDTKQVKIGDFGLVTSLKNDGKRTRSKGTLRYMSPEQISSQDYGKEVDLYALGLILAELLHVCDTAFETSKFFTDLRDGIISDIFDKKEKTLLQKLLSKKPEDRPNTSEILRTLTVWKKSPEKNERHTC

For `O=C(NC1CCC1)c1ccc2nc(-c3cccc(NS(=O)(=O)NCCN4CCCCC4)c3)cn2c1`, the remaining activity was 100% (enzyme activity; 10 µM).
For `C=CC(=O)N1CCC[C@@H](n2nc(-c3ccc(Oc4ccccc4)cc3)c3c(N)ncnc32)C1`, the remaining activity was 166% (0.1 µM).
With `C=CC(=O)N1CCC(C(=O)NCC(=O)N2CCN(c3nc(-c4cnc(N)nc4C(F)F)nc(N4CCOCC4)n3)CC2)CC1` the remaining binding was 100% (KINOMEscan; 1 µM).
`CNc1ncc2c(/C=C/C(=O)N3CCC(OC)CC3)nn(Cc3cccc(C(F)(F)F)c3)c2n1` has a remaining activity of 118% (kinase activity, inhibitor; 1 µM; reference: untreated control).
`CCN1CCN(Cc2ccc(NC(=O)c3ccc(C)c(/C=C/c4cnc5[nH]ccc5c4OC)c3)cc2C(F)(F)F)CC1` gave an inhibition of -12% (A-375; concentration not given).
The binding of `C1=C/COCc2cc(ccc2OCCN2CCCC2)Nc2nccc(n2)-c2cccc(c2)COC/1` is reported as 90% (concentration not given, kinase construct PRKR; reference: control).
The remaining binding of `C=CC(=O)N1CCC(COCC(=O)N2CCN(c3nc(-c4cnc(N)nc4C(F)F)nc(N4CCOC[C@@H]4C)n3)CC2)CC1` is reported as 100% (KINOMEscan; 1 µM; reference: DMSO control).
For `C[C@@H](c1ccc(-n2cnc3c(N)ncnc32)cc1)N1CCc2nn(C)c(Cc3ccccc3)c2C1=O`, the remaining binding was 90% (KINOMEscan; 0.1 µM; reference: DMSO control).
